Results of several laboratories.
A part holds a random share of what one study measured. Values joined by “and” are separate records of one study, mostly repeats; a detail may differ.
Sequence of UniProt Q8IYT8 (whole entry, looked up): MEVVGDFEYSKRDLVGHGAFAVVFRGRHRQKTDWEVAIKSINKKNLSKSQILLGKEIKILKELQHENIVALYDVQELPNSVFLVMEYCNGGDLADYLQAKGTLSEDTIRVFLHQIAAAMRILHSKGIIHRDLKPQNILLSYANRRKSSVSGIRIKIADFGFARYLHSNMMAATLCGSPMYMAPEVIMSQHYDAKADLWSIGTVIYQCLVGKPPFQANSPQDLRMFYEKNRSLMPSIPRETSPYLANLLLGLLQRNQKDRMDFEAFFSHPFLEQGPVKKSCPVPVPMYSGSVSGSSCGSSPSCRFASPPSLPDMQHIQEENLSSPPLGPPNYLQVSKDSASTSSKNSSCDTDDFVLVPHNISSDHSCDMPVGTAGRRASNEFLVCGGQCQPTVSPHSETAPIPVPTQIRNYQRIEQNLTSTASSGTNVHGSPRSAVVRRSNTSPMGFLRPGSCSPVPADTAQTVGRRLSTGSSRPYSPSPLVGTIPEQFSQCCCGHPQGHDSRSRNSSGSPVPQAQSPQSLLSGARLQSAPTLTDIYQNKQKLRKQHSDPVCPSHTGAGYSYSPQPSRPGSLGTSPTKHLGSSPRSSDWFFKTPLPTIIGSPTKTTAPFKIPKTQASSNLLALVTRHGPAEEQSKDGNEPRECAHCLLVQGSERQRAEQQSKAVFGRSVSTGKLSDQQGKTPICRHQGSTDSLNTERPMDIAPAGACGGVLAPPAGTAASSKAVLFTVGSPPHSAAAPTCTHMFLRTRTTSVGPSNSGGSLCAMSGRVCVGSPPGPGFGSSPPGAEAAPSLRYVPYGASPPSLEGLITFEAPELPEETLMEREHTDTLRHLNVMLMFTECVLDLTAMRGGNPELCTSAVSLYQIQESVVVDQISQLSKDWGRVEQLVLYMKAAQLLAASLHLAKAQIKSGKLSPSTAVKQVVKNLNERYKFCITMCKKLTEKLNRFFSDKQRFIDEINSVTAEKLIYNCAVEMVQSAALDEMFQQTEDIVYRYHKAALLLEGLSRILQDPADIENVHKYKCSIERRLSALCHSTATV
Sequence of UniProt P42685 (whole entry, looked up): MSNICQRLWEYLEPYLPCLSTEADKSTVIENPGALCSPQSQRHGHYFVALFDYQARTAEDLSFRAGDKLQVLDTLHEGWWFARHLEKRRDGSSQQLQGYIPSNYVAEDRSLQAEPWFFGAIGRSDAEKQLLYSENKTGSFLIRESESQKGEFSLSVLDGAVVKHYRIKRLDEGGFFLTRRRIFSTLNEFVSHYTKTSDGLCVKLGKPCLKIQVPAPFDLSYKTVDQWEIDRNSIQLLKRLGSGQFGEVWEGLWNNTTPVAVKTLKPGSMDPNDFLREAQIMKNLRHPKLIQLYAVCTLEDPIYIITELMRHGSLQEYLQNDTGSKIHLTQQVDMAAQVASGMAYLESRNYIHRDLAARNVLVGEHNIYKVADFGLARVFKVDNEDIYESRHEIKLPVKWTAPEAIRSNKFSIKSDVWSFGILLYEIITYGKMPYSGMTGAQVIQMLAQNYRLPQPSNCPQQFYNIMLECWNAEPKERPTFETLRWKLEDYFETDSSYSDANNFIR
Sequence of UniProt P41597 (whole entry, looked up): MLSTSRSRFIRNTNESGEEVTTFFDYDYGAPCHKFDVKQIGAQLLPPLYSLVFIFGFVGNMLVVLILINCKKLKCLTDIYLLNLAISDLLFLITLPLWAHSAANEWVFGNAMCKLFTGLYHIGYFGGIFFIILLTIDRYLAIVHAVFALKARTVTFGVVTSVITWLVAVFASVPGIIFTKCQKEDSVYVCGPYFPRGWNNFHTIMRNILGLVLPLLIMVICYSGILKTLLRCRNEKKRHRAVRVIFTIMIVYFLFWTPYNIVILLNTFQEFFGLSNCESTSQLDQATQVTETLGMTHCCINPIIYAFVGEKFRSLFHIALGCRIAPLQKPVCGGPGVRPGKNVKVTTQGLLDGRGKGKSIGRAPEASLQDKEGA
Sequence of UniProt P78368 (whole entry, looked up): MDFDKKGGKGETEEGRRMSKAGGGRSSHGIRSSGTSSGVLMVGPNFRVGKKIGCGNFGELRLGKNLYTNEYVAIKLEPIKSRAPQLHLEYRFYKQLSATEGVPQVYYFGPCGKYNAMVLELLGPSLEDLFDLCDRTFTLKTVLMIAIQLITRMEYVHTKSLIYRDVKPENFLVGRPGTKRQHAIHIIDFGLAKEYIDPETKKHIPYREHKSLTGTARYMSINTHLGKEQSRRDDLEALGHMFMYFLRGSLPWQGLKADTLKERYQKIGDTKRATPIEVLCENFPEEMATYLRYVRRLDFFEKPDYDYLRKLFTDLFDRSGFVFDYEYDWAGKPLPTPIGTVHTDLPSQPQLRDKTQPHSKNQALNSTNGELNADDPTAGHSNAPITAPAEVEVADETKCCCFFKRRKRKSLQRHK
Sequence of UniProt Q9UHD2 (whole entry, looked up): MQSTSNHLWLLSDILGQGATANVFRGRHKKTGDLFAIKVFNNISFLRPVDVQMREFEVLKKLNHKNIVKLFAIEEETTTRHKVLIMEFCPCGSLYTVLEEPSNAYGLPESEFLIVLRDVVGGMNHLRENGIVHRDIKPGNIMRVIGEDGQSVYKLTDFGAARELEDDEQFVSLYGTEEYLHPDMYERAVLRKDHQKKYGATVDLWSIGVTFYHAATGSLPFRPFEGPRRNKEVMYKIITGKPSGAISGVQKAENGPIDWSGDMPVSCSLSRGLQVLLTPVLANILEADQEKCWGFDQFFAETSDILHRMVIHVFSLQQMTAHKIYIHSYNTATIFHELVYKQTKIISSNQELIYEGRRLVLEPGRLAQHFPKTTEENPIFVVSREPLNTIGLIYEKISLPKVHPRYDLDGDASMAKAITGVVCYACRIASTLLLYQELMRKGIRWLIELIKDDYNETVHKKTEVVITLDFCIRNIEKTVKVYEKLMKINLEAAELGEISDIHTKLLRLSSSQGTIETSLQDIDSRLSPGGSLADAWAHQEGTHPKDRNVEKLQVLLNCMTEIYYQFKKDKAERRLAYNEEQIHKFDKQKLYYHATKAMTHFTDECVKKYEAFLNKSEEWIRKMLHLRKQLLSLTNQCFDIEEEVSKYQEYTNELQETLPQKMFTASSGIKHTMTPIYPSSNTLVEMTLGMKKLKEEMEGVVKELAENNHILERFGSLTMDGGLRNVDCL
Sequence of UniProt Q9Y6M4 (whole entry, looked up): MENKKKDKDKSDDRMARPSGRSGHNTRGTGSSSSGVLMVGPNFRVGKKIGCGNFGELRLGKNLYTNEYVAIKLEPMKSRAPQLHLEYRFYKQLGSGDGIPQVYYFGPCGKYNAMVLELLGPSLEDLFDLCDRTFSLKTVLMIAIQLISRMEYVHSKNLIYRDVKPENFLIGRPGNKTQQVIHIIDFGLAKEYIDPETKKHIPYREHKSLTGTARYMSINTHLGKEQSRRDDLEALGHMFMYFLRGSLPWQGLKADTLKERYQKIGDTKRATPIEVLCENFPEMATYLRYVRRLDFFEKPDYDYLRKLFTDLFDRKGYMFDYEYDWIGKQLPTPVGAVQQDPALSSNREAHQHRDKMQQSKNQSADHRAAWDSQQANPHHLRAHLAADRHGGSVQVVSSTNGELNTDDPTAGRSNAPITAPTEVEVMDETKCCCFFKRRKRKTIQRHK
Sequence of UniProt Q99683 (whole entry, looked up): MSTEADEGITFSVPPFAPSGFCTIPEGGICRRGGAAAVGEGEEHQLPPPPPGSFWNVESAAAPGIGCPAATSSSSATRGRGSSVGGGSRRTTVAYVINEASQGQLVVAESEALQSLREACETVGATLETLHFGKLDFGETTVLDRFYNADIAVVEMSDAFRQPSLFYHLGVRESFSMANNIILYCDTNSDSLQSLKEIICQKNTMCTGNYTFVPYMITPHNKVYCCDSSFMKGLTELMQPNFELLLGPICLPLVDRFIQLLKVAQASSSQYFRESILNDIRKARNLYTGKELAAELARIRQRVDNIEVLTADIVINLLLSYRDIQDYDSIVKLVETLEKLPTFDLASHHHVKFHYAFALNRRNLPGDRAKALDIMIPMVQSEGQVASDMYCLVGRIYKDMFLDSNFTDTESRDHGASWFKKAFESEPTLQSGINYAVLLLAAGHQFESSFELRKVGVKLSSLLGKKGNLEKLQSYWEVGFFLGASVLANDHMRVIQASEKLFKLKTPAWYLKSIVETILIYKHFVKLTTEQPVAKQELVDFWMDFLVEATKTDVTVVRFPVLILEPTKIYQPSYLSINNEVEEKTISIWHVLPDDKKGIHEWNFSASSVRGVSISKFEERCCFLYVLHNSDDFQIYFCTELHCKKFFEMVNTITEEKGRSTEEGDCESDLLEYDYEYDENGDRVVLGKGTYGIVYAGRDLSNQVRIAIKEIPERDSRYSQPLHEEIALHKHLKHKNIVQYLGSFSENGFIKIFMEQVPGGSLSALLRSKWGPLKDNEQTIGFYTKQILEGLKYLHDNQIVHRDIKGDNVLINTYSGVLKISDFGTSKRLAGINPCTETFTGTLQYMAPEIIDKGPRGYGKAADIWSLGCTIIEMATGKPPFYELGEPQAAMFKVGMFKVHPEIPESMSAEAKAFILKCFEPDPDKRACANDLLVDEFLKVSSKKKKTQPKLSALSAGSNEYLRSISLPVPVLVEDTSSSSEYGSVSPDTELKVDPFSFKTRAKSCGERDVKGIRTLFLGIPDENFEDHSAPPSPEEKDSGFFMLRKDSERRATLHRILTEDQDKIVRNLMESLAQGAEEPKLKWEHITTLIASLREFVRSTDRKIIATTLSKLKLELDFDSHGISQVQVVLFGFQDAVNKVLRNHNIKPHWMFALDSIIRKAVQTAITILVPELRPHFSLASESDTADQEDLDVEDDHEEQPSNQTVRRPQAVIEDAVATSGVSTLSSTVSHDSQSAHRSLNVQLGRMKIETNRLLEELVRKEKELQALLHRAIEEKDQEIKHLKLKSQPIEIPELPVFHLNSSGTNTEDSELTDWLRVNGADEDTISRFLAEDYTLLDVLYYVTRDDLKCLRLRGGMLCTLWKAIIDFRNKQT

Set 1 — SMILES: CCN(c1nc(N)c(C(=O)N=C(N)N)nc1Cl)C(C)C; observed: β-arrestin recruitment; action: agonist; technique: PRESTO-Tango; concentration: 10 µM; relative to: untreated
target	fold over basal
G-protein coupled receptor 157 (GPR157, Homo sapiens, UniProt Q5UAW9)	0.81
Beta-2 adrenergic receptor (ADRB2, Homo sapiens, UniProt P07550)	0.79
C-C chemokine receptor type 2, isoform B (CCR2, Homo sapiens, UniProt P41597)	2.17
G-protein coupled estrogen receptor 1 (GPER1, Homo sapiens, UniProt Q99527)	0.99
Galanin receptor type 3 (Homo sapiens, UniProt O60755)	1.17 fold
C-X-C chemokine receptor type 5 (CXCR5, Homo sapiens, UniProt P32302)	1.06
Sphingosine 1-phosphate receptor 4 (S1PR4, Homo sapiens, UniProt O95977)	2.4

Set 2 — technique: UPLC-MS/MS metabolomics; host: C57BL/6 CES1-/- mice, EL4 tumour; matrix: EL4 tumour; route: subcutaneous; dose: 0.3 mg/kg/day DON equivalent; time: 5 days; notes: normalised to tissue mass
Structure (SMILES): CC(=O)N[C@@H](Cc1c[nH]c2ccccc12)C(=O)N[C@@H](CCC(=O)C=[N+]=[N-])C(=O)OC(C)C
assay	peak intensity
item: N6-succinyladenosine	179000 a.u. and 161000 a.u. and 134000 a.u. and 129000 a.u. and 132000 a.u. and 243000 a.u.
item: hexose diphosphates	1.09e+07 a.u. and 6.33e+06 a.u. and 8.06e+06 a.u. and 4.89e+06 a.u. and 8.1e+06 a.u. and 6.16e+06 a.u.
item: S-methylcysteine	2.59e+06 a.u. and 1.48e+06 a.u. and 3e+06 a.u. and 1.69e+06 a.u. and 2.62e+06 a.u. and 2.67e+06 a.u.
item: UDP-glucuronate	320000 a.u. and 307000 a.u. and 236000 a.u. and 223000 a.u. and 208000 a.u. and 166000 a.u.

Set 3 — action: inhibitor; concentration: 10 µM; relative to: control
Target: Diamine acetyltransferase 1 (Homo sapiens, UniProt P21673)
Target sequence (P21673 1-171): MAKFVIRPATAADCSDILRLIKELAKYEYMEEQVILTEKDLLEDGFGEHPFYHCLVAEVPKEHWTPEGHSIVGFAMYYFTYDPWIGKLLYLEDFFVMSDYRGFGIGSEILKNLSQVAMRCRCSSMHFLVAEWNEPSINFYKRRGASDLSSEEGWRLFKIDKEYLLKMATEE
Structure (SMILES)	remaining activity [%]
CC(C)=CCOc1c2ccoc2c(OCC=C(C)C)c2oc(=O)ccc12	103
C=C1CC[C@@H]2[C@](C)(CO)[C@H](O)CC[C@@]2(C)[C@@H]1C/C=C1/C(=O)OC[C@H]1O	101
COc1cc([C@H]2OC[C@H]3[C@@H]2CO[C@@H]3c2ccc(O)c(OC)c2)ccc1O	92.7
O=C(O)c1cc(O)c(O)c(O)c1	101
N[C@@H](CCO)C(=O)O	114

Set 4 — observed: enzyme activity; action: inhibitor; concentration: 0.5 µM; relative to: control
SMILES: NC(=O)c1ccc(N(C(N)=O)c2c(F)cccc2F)nc1-c1ccc(F)cc1F
target	remaining activity [%]
Macrophage-stimulating protein receptor (MST1R, Homo sapiens, UniProt Q04912)	90.1
Serine/threonine-protein kinase ULK2 (ULK2, Homo sapiens, UniProt Q8IYT8)	101
Fibroblast growth factor receptor 3 (FGFR3, Homo sapiens, UniProt P22607)	90.2
Angiopoietin-1 receptor (TEK, Homo sapiens, UniProt Q02763)	96.7
Wee1-like protein kinase (WEE1, Homo sapiens, UniProt P30291)	101
Tyrosine-protein kinase FRK (FRK, Homo sapiens, UniProt P42685)	106
Mitogen-activated protein kinase 3 (MAPK3, Homo sapiens, UniProt P27361)	95.2
Tyrosine-protein kinase JAK3 (JAK3, Homo sapiens, UniProt P52333)	95.7
Serine/threonine-protein kinase TBK1 (TBK1, Homo sapiens, UniProt Q9UHD2)	106
Casein kinase I isoform gamma-2 (CSNK1G2, Homo sapiens, UniProt P78368)	99.6
Serine/threonine-protein kinase TAO2 (TAOK2, Homo sapiens, UniProt Q9UL54)	98.7
Serine/threonine-protein kinase Nek1 (NEK1, Homo sapiens, UniProt Q96PY6)	69.6
Casein kinase I isoform gamma-3 (CSNK1G3, Homo sapiens, UniProt Q9Y6M4)	103
Mitogen-activated protein kinase kinase kinase 5 (MAP3K5, Homo sapiens, UniProt Q99683)	102

Repeated from above (set 4):
target	remaining activity [%]
Angiopoietin-1 receptor (TEK, Homo sapiens, UniProt Q02763)	96.7
Wee1-like protein kinase (WEE1, Homo sapiens, UniProt P30291)	101
